Measurements gathered from unrelated publications.
Lines come from different studies, so protocols differ.
Sample: urine

For `CC(C)n1c(C2CCNCC2)nc2c([N+](=O)[O-])c(Br)c(Br)cc21`, “amount excreted in urine” read 0.97 mg (human; oral, 50 mg, 0-24 h, median, single dose).
For `NCCONC(=O)[C@@H]1CC[C@@H]2CN1C(=O)N2OS(=O)(=O)O`, “amount excreted in urine (0-8 h)” read 864 mg (human male; intravenous infusion, 1 g multiple doses, day 9).
`CN[C@@H]1COc2c(S(=O)(=O)NC(=O)Nc3c4c(cc5c3CCC5)CCC4)cnn2C1` — result for “amount excreted in urine (0-48 h)”: 247 mg (human; oral, 1800 mg, 0-48 h).
Under “amount excreted unchanged in urine”, `Cn1cc(-c2cn3nccc3c(-c3cnn([C@]4(CC#N)C[C@@H](C#N)C4)c3)n2)cn1` is recorded as 2.6 mg (healthy humans; oral, 200 mg twice daily, day 10, dosing interval).
For `CC(C)(Sc1ccncc1-c1ccc(C#N)c2ccccc12)C(=O)O`, “amount excreted in urine (0-24 h)” read 40.8 µg (human; oral, 2.5 mg, together with: febuxostat 0 mg).
`C=CC(=O)Nc1cc(Nc2ncc(C(=O)OC(C)C)c(-c3cn(C)c4ccccc34)n2)c(OC)cc1N(C)CCN(C)C` — result for “amount excreted in urine”: 0.83 mg (healthy human; oral, 120 mg single dose, 0-48 h, arithmetic mean).
Under “amount excreted in urine”, `CC(=O)N(C)[C@H]1CCN(C(=O)c2cnc3c(c2)C[C@](C)(c2ccc(F)cc2)N3)C1` is recorded as 42700 nmol (healthy male human; oral, 30 mg once daily, 0-48 h steady state, geometric mean).
For `Oc1ccc([C@@H](O)c2cc(-c3ncnc4cc(N5CCOCC5)ccc34)c(F)cc2Cl)nn1`, “amount excreted in urine” read 3.4% (healthy human volunteers; 0-24 h, fasted tablet, geometric mean; baseline: dose).

Excerpt of the above:
For `Oc1ccc([C@@H](O)c2cc(-c3ncnc4cc(N5CCOCC5)ccc34)c(F)cc2Cl)nn1`, “amount excreted in urine” read 3.4% (healthy human volunteers; 0-24 h, fasted tablet, geometric mean; baseline: dose).
